Measurements gathered from unrelated publications.
Every numbered part comes from another study and shows a few of its results, in no order.

Sample 1 — technique: RNA Bind-n-Seq; molecule type: RNA; medium: in vitro; concentration: 365 nM; relative to: no-protein control; direction: higher = stronger binding
Target: RNA binding protein fox-1 homolog 2, RRM domain, GST-SBP tag (RBFOX2, Homo sapiens, UniProt O43251-10, residues 100-194)
Setting: natural RNA segment, single round, ends assumed
Construct (chain): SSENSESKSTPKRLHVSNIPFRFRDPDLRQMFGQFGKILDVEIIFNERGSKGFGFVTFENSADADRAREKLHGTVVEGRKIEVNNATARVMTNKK
For `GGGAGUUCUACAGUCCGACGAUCCUGUGCCUCUUGUGAGGGCCAUUUGGGACCUCCCUGGGGCACUGCACAAUUGAUAGUGUACCAAUAGAGGGAGACUGGGCGAUCUGGAACAGCACGUGGUGGGGUCCUGCUGGAAUUCUCGGGUGCCAA`, “RBNS enrichment (R)” read 1.69.
`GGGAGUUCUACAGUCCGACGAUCCCUGCAGCUGCCUCACACCGCCCCUUGUGCUCGCCUCAUAGGUGUCUAUUUGGACUCUAAGCUCUACGGGUGACAGAUCUUGUUUCUGAAGAUGGUUUAAGUUAUAGCUUUGGAAUUCUCGGGUGCCAA` — result for “RBNS enrichment (R)”: 0.433.
Under “RBNS enrichment (R)”, `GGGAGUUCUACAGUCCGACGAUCCAUUUAGGCAUGAGCUCUUGGCAGGAGUGGGCUCUGAGCAGGUGUCAUAUUCAUUCUUUACAAACCAUAGAGAAAUAAUUUCAUCCCCCAACUGUAGUAAUUGUUACAAUUGGAAUUCUCGGGUGCCAA` is recorded as 0.85.
`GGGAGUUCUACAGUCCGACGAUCAAAACUCAUCUUGAAUUGUAGCUCCCAUAAUUGCCAUGUGUUGUGGGAAGGACCCAGUGGGAGAUAAUUGAAAUAUGGGGGCAGUUUCCGCCAUACUGUUCUGGUGAUAGUGGAAUUCUCGGGUGCCAA`: “RBNS enrichment (R)” 1.48.
For `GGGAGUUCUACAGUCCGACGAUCCUUUCAUCCUGGAUUCUUAGGUGGGAAUCAGACACUUAGAAAGAUGUUGGGUCAAGGUUCUAGGAGCAGGACAGAGUGUUCCUGUCAUAGUACACACUAAGUUUCCCACUUGGAAUUCUCGGGUGCCAA`, “RBNS enrichment (R)” read 0.353.
`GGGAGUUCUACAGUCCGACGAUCGUUACAAUAGAUAGUGUCAUGUUGCAGGUUCAACGUUAUUUACAUGUAAAUAGACAAAAGGAAACAUUUGCCAAAAGCGGCAGAUCUUUACUGAAAGAGAGAGCAGCUGUUGGAAUUCUCGGGUGCCAA`: “RBNS enrichment (R)” 0.47.
For `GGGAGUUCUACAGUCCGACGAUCAGUGUAGGGCAGAGCGUUGACCCACUGGCUAGUGCUUGACUUGGGAAUCAGGACAGUACCUGUACAGGCACGGGGACCCGCUCCGUCCGUGCGCCGCCCUAUAUUGAGGGUGGAAUUCUCGGGUGCCAA`, “RBNS enrichment (R)” read 0.767.
For `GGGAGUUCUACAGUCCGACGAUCGAAAGGCCAUCUUCCCACUGUCCUGCCAGCAGCUGUUCUGGGUAGCAGCAAUUGCAGAGUGACCAGUGAACUUUAUGGACUUAGCUGACAACUCCUAGAACAUGUGCACCUGGAAUUCUCGGGUGCCAA`, “RBNS enrichment (R)” read 0.261.

Sample 2 — technique: RNA Bind-n-Seq; molecule type: RNA; medium: in vitro; concentration: 200 nM; setting: whole 134-nt RNA, ends assumed; added: 150 mM KCl; relative to: input library; direction: higher = stronger binding
Target: Fragile X messenger ribonucleoprotein 1, C-terminal low-complexity region (Fmr1, Mus musculus, UniProt P35922)
`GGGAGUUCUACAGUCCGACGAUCCACAGACAACACGCACCCACACAGACACAGAGGGAAGGGGUUGGGAUGGGGACAGGGUGCUCAGCAGGGCGGGGUAGGACCCCAGCCCCUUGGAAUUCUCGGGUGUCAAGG` gave a log2 enrichment of 1.34.
The log2 enrichment of `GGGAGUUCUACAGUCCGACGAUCACCAUGCAGGUGGGCAUCUUUGGGAAGUGGGGCAAGGGGGGGAUAGGGAGGGGGGUAACACUUUUGGAACAGGUGGUCCCAGGUCGUUUCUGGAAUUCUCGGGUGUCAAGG` is reported as 0.98.
With `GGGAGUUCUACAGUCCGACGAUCCCUGUGCUACACAUCGUAUGUACCGAAUCGGGGCCCCCCGGGCCCCCCGGGGCCCCCCGGAAAGUAUUAUGUUACGCCGUUCGGAUCUGCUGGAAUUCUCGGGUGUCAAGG` the log2 enrichment was -0.736.
`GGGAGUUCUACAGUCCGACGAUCAAGUCCUGUGCUACACAUCGUAUGUACCGAAUCGGGAAAGGGAAAAAGGGAAAGGGAAAGUAUUAUGUUACGCCGUUCGGAUCUGCACUUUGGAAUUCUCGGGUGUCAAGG` gave a log2 enrichment of 0.113.
`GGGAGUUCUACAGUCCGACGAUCCAAGUCCUGUGCUACACAUCGUAUGUACCGAAUCGGGAGGGUUUUUGGGUUUGGGAAAGUAUUAUGUUACGCCGUUCGGAUCUGCACUUCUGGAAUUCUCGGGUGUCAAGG` has a log2 enrichment of 0.741.
`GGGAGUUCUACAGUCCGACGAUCUCCUGUGCUACACAUCGUAUGUACCGAAUCGGAAAAAAGGGGAAAAAAGGAAAAAAGGGGAAAGUAUUAUGUUACGCCGUUCGGAUCUGCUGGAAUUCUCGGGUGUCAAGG` has a log2 enrichment of -0.497.
The log2 enrichment of `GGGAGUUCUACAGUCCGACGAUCCUGUGCUACACAUCGUAUGUACCGAAUCGGGGAAAAAGGGGUUUUUGGGGUUUUUUUGGGGAAAGUAUUAUGUUACGCCGUUCGGAUCUGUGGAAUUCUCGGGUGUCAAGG` is reported as 0.000127.
For `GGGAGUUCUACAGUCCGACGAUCUAGGGUUCAGGAUAAGUUUGAGGUGCUGAAUUACACAAGCAUUCCUAUCUUUCUCCCGGAAGUCACCAUUGGAGCUCAUCAGACUGACCGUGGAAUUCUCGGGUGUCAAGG`, the log2 enrichment was -0.76.
`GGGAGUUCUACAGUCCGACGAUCCCUGUGCUACACAUCGUAUGUACCGAAUCGGGCCCCCCGGGCCCCCCGGGGCCCCCCGGGGAAAGUAUUAUGUUACGCCGUUCGGAUCUGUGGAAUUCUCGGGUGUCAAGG` has a log2 enrichment of -1.01.

Sample 3 — technique: aptamer microarray, sandwich; molecule type: DNA with 2'F-ANA; medium: in vitro; concentration: 200 nM; added: Cy3 exosite-II aptamer, 400 nM; direction: higher = stronger binding; sequence: GGTTGGTGTGGTTGG
Target: Prothrombin, mature alpha-thrombin (F2, Homo sapiens, UniProt P00734)
Setting: whole 15-mer aptamer, many near background
For `2'F-ANA at 2 3 6 7 12 15`, “mean fluorescence intensity” read 1030 a.u.
`2'F-ANA at 2 4 6 7 8 11 12 13 15` — result for “mean fluorescence intensity”: 297 a.u.
For `2'F-ANA at 2 3 4 5 6 7 10 11 14 15`, “mean fluorescence intensity” read 56.4 a.u.
For `2'F-ANA at 2 3 7 9 10 12 14`, “mean fluorescence intensity” read 339 a.u.
`2'F-ANA at 1 5 7 10 14` — result for “mean fluorescence intensity”: 159 a.u.
`2'F-ANA at 1 3 4 6 12 13 14 15`: “mean fluorescence intensity” 74 a.u.
`2'F-ANA at 1 3 4 8 9 11 13 14` — result for “mean fluorescence intensity”: 58.6 a.u.
`2'F-ANA at 2 3 5 6 11 13 14` — result for “mean fluorescence intensity”: 49.5 a.u.
`2'F-ANA at 1 3 4 6 12 14`: “mean fluorescence intensity” 88.6 a.u.
`2'F-ANA at 2 6 7 9 13` — result for “mean fluorescence intensity”: 243 a.u.
Under “mean fluorescence intensity”, `2'F-ANA at 1 2 3 4 6 7 9 11 14` is recorded as 56.1 a.u.
Under “mean fluorescence intensity”, `2'F-ANA at 3 5 7 8 9 12 15` is recorded as 253 a.u.
Under “mean fluorescence intensity”, `2'F-ANA at 1 2 4 6 7 8 10 11 14 15` is recorded as 55.9 a.u.
`2'F-ANA at 1 2 3 5 8 10 13 15` — result for “mean fluorescence intensity”: 74 a.u.
`2'F-ANA at 3 4 5 9 11 12 13`: “mean fluorescence intensity” 107 a.u.
Under “mean fluorescence intensity”, `2'F-ANA at 3 4 8 10 14 15` is recorded as 190 a.u.
`2'F-ANA at 1 3 4 7 10 11 12 13 15`: “mean fluorescence intensity” 75.4 a.u.
`2'F-ANA at 1 2 4 6 7 14 15` — result for “mean fluorescence intensity”: 54 a.u.
`2'F-ANA at 3 4 8 9 10 13 14 15`: “mean fluorescence intensity” 195 a.u.
`2'F-ANA at 1 3 4 7 14`: “mean fluorescence intensity” 78.9 a.u.

Sample 4 — technique: universal PBM; molecule type: double-stranded DNA, one strand shown; medium: in vitro; concentration: not given; direction: higher = stronger binding
Target: Sal-like protein 4, full length isoform B (SALL4, Homo sapiens, UniProt Q9UJQ4-2, residues 1-616)
Setting: 8-mer, flanks averaged, mean of replicates
Residues (chain): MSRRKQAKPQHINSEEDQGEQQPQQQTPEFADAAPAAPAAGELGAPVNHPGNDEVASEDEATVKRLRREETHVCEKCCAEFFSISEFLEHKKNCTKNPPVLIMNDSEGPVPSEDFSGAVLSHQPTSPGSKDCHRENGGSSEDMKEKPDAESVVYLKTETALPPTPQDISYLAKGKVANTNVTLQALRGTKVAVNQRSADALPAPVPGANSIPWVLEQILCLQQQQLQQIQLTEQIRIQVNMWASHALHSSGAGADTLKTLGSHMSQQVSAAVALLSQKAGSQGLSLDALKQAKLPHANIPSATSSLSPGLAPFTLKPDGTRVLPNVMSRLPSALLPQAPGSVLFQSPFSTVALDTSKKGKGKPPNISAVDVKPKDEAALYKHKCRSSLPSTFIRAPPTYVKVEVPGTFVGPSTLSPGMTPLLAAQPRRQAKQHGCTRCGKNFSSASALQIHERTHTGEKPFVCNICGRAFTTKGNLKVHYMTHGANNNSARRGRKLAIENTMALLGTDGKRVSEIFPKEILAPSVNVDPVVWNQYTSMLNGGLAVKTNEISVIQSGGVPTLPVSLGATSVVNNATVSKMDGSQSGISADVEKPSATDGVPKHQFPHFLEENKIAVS
The E-score of `CACCGTAC` is reported as -0.0128.
The E-score of `CACGAGGC` is reported as -0.176.
`CCGTCGTA` has an E-score of -0.00501.
`ACTTGCTG` has an E-score of -0.0366.
`GACGTGAC` has an E-score of -0.045.
`CACACGGG` has an E-score of -0.288.
`AATTGTCC` has an E-score of 0.123.
With `GAGAGACA` the E-score was -0.0737.
`GTGTCTCA` gave an E-score of -0.0198.
`ACGGAGAG` gave an E-score of -0.137.
With `ATGAACCG` the E-score was -0.0293.
`AGAAATTA` gave an E-score of 0.343.
`ACTGTGCG` has an E-score of -0.176.
For `GCCAGTCC`, the E-score was -0.307.
The E-score of `ATTTTTTA` is reported as 0.401.
`GACATATC` gave an E-score of 0.138.
With `CCAAGACG` the E-score was -0.183.
For `TAACGACA`, the E-score was 0.142.
The E-score of `CTGCATGC` is reported as -0.101.
With `CCACTCCA` the E-score was -0.0869.
For `GACCAGTC`, the E-score was -0.21.
For `ACCGGGAA`, the E-score was -0.0849.
`CAAAATGG` gave an E-score of 0.149.

A few entries again (sample 4):
`ACTTGCTG` has an E-score of -0.0366.
The E-score of `CACCGTAC` is reported as -0.0128.
The E-score of `CACGAGGC` is reported as -0.176.
For `GACCAGTC`, the E-score was -0.21.
